# Assay results from different studies.
# Each numbered part is a random draw from the data of one study; scales do not carry over between parts. Positions count from the first letter of the parent shown.

# Sample 1
# Target: CCNA1, cyclin fold, Cln2 fusion (human)
# Technique: yeast growth competition, sequencing
# Medium: yeast
# Setting: weak parent motif
# Baseline: not given
# Reading: higher = stronger binding
# Starting sequence: WEE2 docking peptide (human); KELRQKLNFSYCE; partner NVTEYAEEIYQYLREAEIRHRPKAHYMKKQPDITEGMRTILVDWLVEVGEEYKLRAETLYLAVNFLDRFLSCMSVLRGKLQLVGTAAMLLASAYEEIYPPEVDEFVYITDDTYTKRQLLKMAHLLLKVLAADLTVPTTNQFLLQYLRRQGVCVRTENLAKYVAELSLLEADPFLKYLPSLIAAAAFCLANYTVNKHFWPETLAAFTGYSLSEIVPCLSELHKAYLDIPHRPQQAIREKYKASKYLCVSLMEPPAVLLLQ
Variant,normalised enrichment score
KELRAKLNFSYCE [Q5A],-0.116
KELRQKLNFSACE [Y11A],0.0766
KELRQKLNFAYCE [S10A],0.0412
KELRQKLNASYCE [F9A],0.109
KEARQKLNFSYCE [L3A],-0.177
KELAQKLNFSYCE [R4A],-0.459
KELRQKLNFSYAE [C12A],-0.486

# Sample 2
# Target: RNA binding protein fox-1 homolog 2, RRM domain, GST-SBP tag (RBFOX2, Homo sapiens, UniProt O43251-10, residues 100-194)
# Technique: RNA Bind-n-Seq
# Form: RNA
# Medium: in vitro
# Tested at: 365 nM
# Setting: natural RNA segment, single round, ends assumed
# Baseline: no-protein control
# Reading: higher = stronger binding
# Constant ends, left off below: GGGAGUUCUACAGUCCGACGAUC … UGGAAUUCUCGGGUGCCAA
# Target sequence (chain): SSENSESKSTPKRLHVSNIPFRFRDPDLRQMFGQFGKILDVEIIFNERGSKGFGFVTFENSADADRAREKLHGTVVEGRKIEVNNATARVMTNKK
Strand,RBNS enrichment (R)
AGAUGGCCUCCCUGCUCUUCUGGCCCCCAUGUCAUAGUUAAAACUGACAAGGAUUUGAAAAAGACUGGCGAGGGAACGUGUCUGCUUAGCCGAGACUCCCAUACCUACUA,0.31
UAAUACAGUCCAGCUGAAAGUAGGAAAUGACUGACCUGUAGGGUUAUAGGGUCCCUGAAUCACUGAUCUUCAACAGGGCAUUUUAAUAUUAGCAUUAGUGUGCACAGGGU,0.753
CCGUGGACUCUCCCUGGUCCACCACCAUGUUGAAGCCCUUGGCAGCCUGAGAGCUCCAAGGAACAAGCUGUGACAACCAGGAGCCCUGUCUGUGGGUUCGUCUGCCCAGG,0.246
UUCAGCAUCACUCUACCCUCCCAUGUCCUUAGCAUUGCUGUGCGUGUUUCCAGGCACUUAGGACACCCUUCCCCACGUUGCCAUCUUACUGACAGUUCAAAUGACUCUCC,0.955
AAAUGUAUUUUAAAAUUUCACUCUGGCAUAUGAUUUAUCUAUCACCAUUACUUUUUUUUAAGUCACAAUUUCAGAAUUUUGGGACAUUUGCAUUCAAUUUACAGGUACCA,0.531
ACUUCUUCCUAGCCAAUUCCUCAUUCUCUCACGUGACAACAGCUGAAAGUGCCAGGUGCUAGAUUCCUCCUCCUUGGAAUUGUGUUAGGCUAGUUGGUCCUCUUUGAGGA,0.411
GCCAUGCUGCUCCUUUCUGUAAAUACCCGCUGCAGUGGCGGCCCAGAGCGAGGAACAAGCCAUUAGGACCUGACCGUUGUAAAUACAGCCGCCCGCCCGCCGGUCCCCAG,0.318
UAGCUUCUCAUUACAGUAUUUCUAAUUGCUUCACACUUUACAGUUUUAAUACAAAGUACAAGCUCUACUUUUAUAACGUGUACUACAAGUUUCUUUAAAAGUAUUGUUGU,0.495
GCCAAGUGUUCUGCUUGCAUUUGCUUGGCUCUGGUACCAAAUAGUUGGGAUUCUUGAUGAAAUCCCCUGCCCCGCGUGCGUGUCAGUGCAGAUCCUGCGCACCACGCCCC,0.424
AAGCAGGGCAAUGCAGCCAAAUAUUAGAGUUGAUGUGCAGUCUUAGGUCCUUUUUAAUCUGGGGUAUUACAGGCAGUACUUUAAAUCAGAGUCUUCCUGGCCUUUUUCCC,0.475
UUUCUGCUGAUAUACUCACCUUAGAACUGCUCAGAACCCUGGUGCUUUAUUUUUGUUUUAAUCUUUUGUUGCCAGUGAUGAUUUUCCUAUUCUGCAAAUAGUGUAUUUCC,0.908
CAGUUCUAACUCUAGCUAGAGGCCAGGCUGUGUGCAGAGCUAAAGCACAAAUGAGCAGUACAUCAGCAUGGGCAGAGAAAAUACAGGACUCCAGAUGGGAAGGUUUUAAG,7.38

# Sample 3
# Target: ABI1, truncated, D143A, DHFR fusion (Arabidopsis thaliana)
# Technique: DHFR PCA, deep sequencing
# Medium: yeast
# Setting: methotrexate growth selection, single substitutions
# Added: (+)-ABA 4.8 µM
# Baseline: wild-type fitted maximum
# Reading: higher = stronger binding
# Starting sequence: PYL1, truncated, DHFR fusion (Arabidopsis thaliana); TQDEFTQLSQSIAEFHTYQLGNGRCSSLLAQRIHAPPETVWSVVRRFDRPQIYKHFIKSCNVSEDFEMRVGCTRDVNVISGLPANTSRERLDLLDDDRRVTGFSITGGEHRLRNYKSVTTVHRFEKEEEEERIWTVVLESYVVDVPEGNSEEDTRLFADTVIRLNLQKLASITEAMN; partner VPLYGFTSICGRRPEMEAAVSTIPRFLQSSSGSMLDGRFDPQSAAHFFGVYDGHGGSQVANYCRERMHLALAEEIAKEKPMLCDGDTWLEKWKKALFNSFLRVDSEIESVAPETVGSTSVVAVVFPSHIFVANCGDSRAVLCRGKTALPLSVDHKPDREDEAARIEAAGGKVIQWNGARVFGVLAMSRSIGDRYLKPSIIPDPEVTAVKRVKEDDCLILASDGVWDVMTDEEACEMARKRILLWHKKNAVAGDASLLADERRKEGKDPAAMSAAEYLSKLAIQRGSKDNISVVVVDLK
Variant,relative binding score
E109I,40.3%
R99H,74.3%
A170W,-15.5%
V118A,16.1%
V145F,-0.847%
E152M,54.7%
T135P,1.4%
N61I,81.9%
S104C,12.9%
Y18G,16.3%
S150F,-2.12%
T135H,2.79%
T1V,81.5%
G102Q,4.72%
R155N,20.1%

# Sample 4
# Target: Interferon regulatory factor 5, full length, phosphomimetic (IRF5, Homo sapiens, UniProt Q13568-2, residues 1-514, S451D/S453D/S456D/S462D)
# Technique: protein-binding microarray
# Form: double-stranded DNA, one strand shown
# Medium: in vitro
# Tested at: 940 nM top
# Setting: 60-bp whole probe
# Added: salmon DNA 0.4 mg/ml
# Baseline: random background probes
# Reading: higher = stronger binding
# Constant ends, left off below: GCCTAGCAC … GTCTTGATTCGCTTGACGCTGCTG
Strand,fitted relative affinity
GACGGACAGCTTTTCCTGACGTGCTAG,-0.528 z-score
GTGCTTCACAGAGGCGGCTGGTGCTAG,-0.586 z-score
TTAGATTTCGGTATCGGTTAGTGCTAG,7.07 z-score
GACGGCCTGCTACTGCTGACGTGCTAG,-0.632 z-score
GACGGTATCGGTCCCGGGACGTGCTAG,8.25 z-score
TAAGAACTGAGTTTCGATTAGTGCTAG,8.09 z-score
AACGATATCGGGTATCGAGACGTGCTA,1.23 z-score
TCATCCCTTTCTCTCTGACTGTGCTAG,1.3 z-score
TCACATTAAATTTTAATACTGTGCTAG,0.241 z-score
TTAGAACTGAGTCACGATTAGTGCTAG,-0.405 z-score
GACGTTATCGACACTGGGGACGTGCTA,0.348 z-score
TCTTTCACAAGACGAAAGGAGTGCTAG,1.05 z-score
TTAGGTAACCTTATCCTTTAGTGCTAG,-0.501 z-score
TTGCTTTCCTTCTTGAACTCGTGCTAG,1.32 z-score
ACCACTTTCCATTTCTGTTTGTGCTAG,2 z-score
GACGATCTGGGGACTGGAGACGTGCTA,0.09 z-score
TTAGGTTTCGCGTTTCGGTTAGTGCTA,6.11 z-score
TCACATCTCGGAGATCTCACTGTGCTA,0.415 z-score
TTAGGTTCCGGTCTCGGTTAGTGCTAG,4.67 z-score

# Sample 5
# Target: JDP2, bZIP domain (human)
# Technique: DHFR protein complementation
# Medium: yeast
# Setting: single substitutions, most at no-binding floor
# Baseline: wild-type JUN-FOS pair
# Reading: higher = stronger binding
# Starting sequence: JUN, bZIP domain (human); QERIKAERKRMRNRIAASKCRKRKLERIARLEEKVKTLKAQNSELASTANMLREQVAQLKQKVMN; partner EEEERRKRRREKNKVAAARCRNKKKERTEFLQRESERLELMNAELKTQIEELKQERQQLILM
Variant,binding fitness
L38E,0.0635 natural log
M51S,0.295 natural log
N42T,0.171 natural log
S47E,0.349 natural log
V56E,-0.741 natural log
L45A,0.0853 natural log
A40H,0.313 natural log
Q58P,-0.000712 natural log
V35H,0.175 natural log
T37A,0.331 natural log
E33H,0.189 natural log
T48H,0.243 natural log
L52H,-0.0833 natural log
M51P,-0.165 natural log
S47V,0.353 natural log
E44T,0.205 natural log
L59S,-0.17 natural log
R30N,0.243 natural log
A40E,0.327 natural log
E54N,0.215 natural log
K36N,0.32 natural log
N42Y,0.267 natural log
A29C,0.167 natural log
T48N,0.165 natural log
A57S,0.169 natural log

# Sample 6
# Target: UBE2B UBC core domain (UniProt P63146)
# UniProt P63146, sequence (whole entry, looked up): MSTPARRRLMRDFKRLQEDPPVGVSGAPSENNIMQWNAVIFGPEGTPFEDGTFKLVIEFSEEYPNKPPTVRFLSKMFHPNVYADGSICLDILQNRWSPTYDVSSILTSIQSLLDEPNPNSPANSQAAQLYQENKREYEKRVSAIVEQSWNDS
# Technique: yeast two-hybrid
# Medium: yeast
# Setting: mostly zero background
# Baseline: not given
# Reading: higher = stronger interaction
# B1: TRIM13 RING domain (UniProt O60858); chain MELLEEDLTCPICCSLFDDPRVLPCSHNFCKKCLEGILEGSVRNSLWRPAPFKCPTCRKETSATGINS
# B2: VPS41 RING domain (UniProt P49754); chain KGVLVDEENICESCLSPILPSDAAKPFSVVVFHCRHMFHKECLPMPSMNSAAQFCNICSAKNRGPGSAI
# B3: SH3RF2 RING domain (UniProt Q8TEC5); chain DDLTLLDLLECPVCFEKLDVTAKVLPCQHTFCKPCLQRVFKAHKELRCPECRTPVFSNIEAL
# B4: RC3H1 RING domain (UniProt Q5TC82); chain QAPQWTDFLSCPICTQTFDETIRKPISLGCGHTVCKMCLNKLHRKACPFDQTTINTDIELL
# B5: TRIM4 RING domain (UniProt Q9C037); chain EAEDIQEELTCPICLDYFQDPVSIECGHNFCRGCLHRNWAPGGGPFPCPECRHPSAPAALRP
# B6: DTX4 RING domain (UniProt Q9Y2E6); chain QKVRHPPDEDCTICMERLTAPSGYKGPQPTVKPDLVGKLSRCGHVYHIYCLVAMYNNGNKDGSLQCPTCKTIYGVKTGTQ
# B7: RNF38 RING domain (UniProt Q9H0F5); chain PNNHQSEQTLCVVCMCDFESRQLLRVLPCNHEFHAKCVDKWLKANRTCPICRADASEVHRDS
# B8: MKRN1 RING domain (UniProt Q9UHC7); chain FAVQRSKDMVCGICMEVVYEKANPSERRFGILSNCNHTYCLKCIRKWRSAKQFESKIIKSCPECRITSNFVIPSE
# B9: NEURL1 RING domain (UniProt O76050); chain VTPGLGQWSDECTICYEHAVDTVIYTCGHMCLCYACGLRLKKALHACCPICRRPIKDIIKT
# B10: TRAF5 RING domain (UniProt O00463); chain FVERLEERYKCAFCHSVLHNPHQTGCGHRFCQHCILSLRELNTVPICPVDKEVIKSQEVFK
# B11: RNF111 RING domain (UniProt Q6ZNA4); chain EGTEEDTEEKCTICLSILEEGEDVRRLPCMHLFHQVCVDQWLITNKKCPICRVDIEAQLPSE
Molecule,lacZ reporter activity
B1 (TRIM13 RING domain),0
B2 (VPS41 RING domain),0
GAAPGPEAAECLVCSELALLVLFSPCQHRTVCEECARRMKKCIRCQVVVSKKLRPD (MIB2 RING domain (UniProt Q96AX9)),0
B3 (SH3RF2 RING domain),0
FQGDVDEDLICPICSGVLEEPVQAPHCEHAFCNACITQWFSQQQTCPVDRSVVTVAHLRP (RNF41 RING domain (UniProt Q9H4P4)),0
B4 (RC3H1 RING domain),0
B5 (TRIM4 RING domain),0
B6 (DTX4 RING domain),0
B7 (RNF38 RING domain),0
B8 (MKRN1 RING domain),0
B9 (NEURL1 RING domain),0
ASLPTSEEDLCPICYAHPISAVFQPCGHKSCKACINQHLMNNKDCFFCKTTIVSVEDWE (RNF123 RING domain (UniProt Q5XPI4)),0
B10 (TRAF5 RING domain),0
QVDKAVFHMQSVKCLKCQEQKRAVLPCQHAALCELCAEGSECPICQPGRAHTLQS (UNK RING domain (UniProt Q9C0B0)),0
B11 (RNF111 RING domain),0
